Published values from different studies.
Each numbered part is a random draw from the data of one study; scales do not carry over between parts.

Series 1
Target: Interferon regulatory factor 5, full length, phosphomimetic (IRF5, Homo sapiens, UniProt Q13568-2, residues 1-514, S451D/S453D/S456D/S462D)
Method: protein-binding microarray
Form: double-stranded DNA, one strand shown
Sample: in vitro
Tested at: 940 nM top
Notes: 60-bp whole probe
Together with: salmon DNA 0.4 mg/ml
Relative to: random background probes
Reading: higher = stronger binding
Constant ends, left off below: GCCTAGCAC … GTCTTGATTCGCTTGACGCTGCTG
For `GACGGTTCCCTTCTCCTGACGTGCTAG`, “fitted relative affinity” read 0.466 z-score.
`TTAGGACTGGTGTTTCGGTTAGTGCTA` — result for “fitted relative affinity”: 2.14 z-score.
For `TTATGTCTCCTTCTCCTTTAGTGCTAG`, “fitted relative affinity” read 1.06 z-score.
`GACGGTTTCGACTCTGGGGACGTGCTA` — result for “fitted relative affinity”: 7.67 z-score.
`GACGATTTCGGGACTGGGGACGTGCTA`: “fitted relative affinity” 0.0999 z-score.
`CCACTCTTCCTTTACTTTCTGTGCTAG`: “fitted relative affinity” 2.6 z-score.
`CCTAGTTTCATTCCTGATCTGTGCTAG` — result for “fitted relative affinity”: 6.29 z-score.
`GACGGACTGGACTATAGGGACGTGCTA` — result for “fitted relative affinity”: -0.519 z-score.
`TTAGGACTGGGTAGCGGTTAGTGCTAG`: “fitted relative affinity” -0.32 z-score.
Under “fitted relative affinity”, `GACGAACTCAGTATCGAGACGTGCTAG` is recorded as 1.8 z-score.
Under “fitted relative affinity”, `TTAGGTTCCTTTTTCCTTTAGTGCTAG` is recorded as 0.869 z-score.
`GACGGTATCCTTTTTCTGACGTGCTAG` — result for “fitted relative affinity”: 0.732 z-score.
`GATGATTTCAGTATCGAGACGTGCTAG` — result for “fitted relative affinity”: 2.47 z-score.
Under “fitted relative affinity”, `TTAGGTTTCGGGTATTGGTTAGTGCTA` is recorded as 10.9 z-score.
`GACGACATCAGACTGGAGACGTGCTAG` — result for “fitted relative affinity”: -0.538 z-score.
Under “fitted relative affinity”, `TTAGATTTTTTTTCCTAATTGTGCTAG` is recorded as 0.702 z-score.
`CAGTTTCTCTTTCCTTCTTGGTGCTAG`: “fitted relative affinity” 8.72 z-score.

Series 2
Target: RNA binding protein fox-1 homolog 2, RRM domain, GST-SBP tag (RBFOX2, Homo sapiens, UniProt O43251-10, residues 100-194)
Method: RNA Bind-n-Seq
Form: RNA
Sample: in vitro
Tested at: 365 nM
Notes: natural RNA segment, single round, ends assumed
Relative to: no-protein control
Reading: higher = stronger binding
Under “RBNS enrichment (R)”, `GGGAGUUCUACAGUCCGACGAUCUUUUCCCCAAACACUUUGCCAGCCACUGGUGGUCCCUGCUUUUCUGAGUACCAUGUUUCCAGGAGGGGCCAUGGGGGUCAGGGUGGUUUUGAGAGAGCAGGGUAAGGAAGUGGAAUUCUCGGGUGCCAA` is recorded as 0.535.
`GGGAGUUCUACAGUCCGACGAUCCCUGCGUCAUGUAAAUAUCUGCAAAUCAUGACAGUCUAAAGUGCAAACCAUUUUCAGAGACUUUGGGGAAUGCAGUGAUCAGAAGUGGCUAAUUUAUUUUAUUUCUGAUUUGGAAUUCUCGGGUGCCAA`: “RBNS enrichment (R)” 0.907.
`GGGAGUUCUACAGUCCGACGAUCUGGAUGCCCAGACACACAUCUUUCAGAAAACACAGAAACCUAGCCAGCAGCUGCAGACAUGUUUGGGAAUAUGAGAGCAUGUUCGCAGACCCACCAGGUUCUGUGUCCUAUGGAAUUCUCGGGUGCCAA`: “RBNS enrichment (R)” 0.456.
`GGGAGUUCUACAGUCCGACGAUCGUCAGGGACUUGAUAACCUGAUGUUUGAUGUAGAUCCCUGCUGGGGAGUCCACAACUAUGAAUGUAUUUACUUCCAACAUUUCCCAAAAUGAAAACUAUAAAUUGCAAGUUGGAAUUCUCGGGUGCCAA` — result for “RBNS enrichment (R)”: 0.825.
`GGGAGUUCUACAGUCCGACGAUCGAAAUAUCUGCUGAUUGUGCCCUACUCUUUGCACCUGACUUUUCCUAGUUGUCCUGGUGCUAACACAGGAGCUACACCUUGAUCCUCUCCUGGCAUGAAAAUAAAACAAAUGGAAUUCUCGGGUGCCAA`: “RBNS enrichment (R)” 0.846.
For `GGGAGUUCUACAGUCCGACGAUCUUAAAUGUCCCAAGCACCUUGUCUCCCUUCCCAAGAACAAACCAUUUCUGUGCACAUCCUUGGAGGCGAGAUGAGCUCCUUGCAGAGGGCCAGAGUAAGUGCAAGUCAUGUGGAAUUCUCGGGUGCCAA`, “RBNS enrichment (R)” read 0.579.
Under “RBNS enrichment (R)”, `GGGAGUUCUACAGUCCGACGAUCUGGGAACCAGCAGACUGCAUUCCUAAUCUUCAUUAUGCCUGAGACUUGUCUUACAAUGUUACCUUUAAGUGAAUCACAUAAUUGUCUUUGGAACUUGGUCUCCCAACACUUGGAAUUCUCGGGUGCCAA` is recorded as 0.395.
For `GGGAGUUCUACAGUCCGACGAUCUCUGUUGAGAUUUUUCCCUCACCUUGCCUCUCAGGCACAAUAAAUAUAGUUAUACCACUGCCCAUCAGCCCAAGUCUCUUUAUUGGAACCGGGCCCCGCUGGCCCUGGCUUGGAAUUCUCGGGUGCCAA`, “RBNS enrichment (R)” read 0.581.

Series 3
Target: Histone acetyltransferase KAT6A, winged helix 1, GST fusion (KAT6A, Homo sapiens, UniProt Q92794, residues 1-85)
Method: protein binding microarray
Form: double-stranded DNA, one strand shown
Sample: in vitro
Tested at: not given
Notes: 8-mer, flanks averaged, mean of 2 arrays, mostly near background
Relative to: not given
Reading: higher = stronger binding
Target sequence (chain): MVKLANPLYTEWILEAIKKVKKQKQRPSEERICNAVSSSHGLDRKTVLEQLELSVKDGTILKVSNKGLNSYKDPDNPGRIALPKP
`ATTACGAG` gave an E-score of -0.0223.
`GCAGTGAC` has an E-score of -0.029.
With `CAAACTAG` the E-score was -0.124.
`AATTCTGC` gave an E-score of -0.0964.
`GGAGAAGA` has an E-score of -0.00188.
`TCGGGCAA` gave an E-score of 0.039.
For `ACACGCCT`, the E-score was -0.0665.
For `ACTGCATC`, the E-score was -0.248.
`CTAGTGTC` has an E-score of -0.0616.
With `ACGCATCC` the E-score was 0.186.
For `ATAACATA`, the E-score was 0.016.

Single results of other studies
With `PhoQ, residues 284 288 289 292 302 303 TTSMTC` the fold induction was 10.1 (PhoP, residues 12 14 15 18 19 IQFRS (Escherichia coli, UniProt P23836); Sort-seq, item: YFP reporter; E. coli; PhoQ-PhoP variant library, together with: 10 µM Mg2+; relative to: high Mg2+ state, higher = stronger signaling).

Excerpt of the above (series 1):
`GACGACATCAGACTGGAGACGTGCTAG` — result for “fitted relative affinity”: -0.538 z-score.
For `TTATGTCTCCTTCTCCTTTAGTGCTAG`, “fitted relative affinity” read 1.06 z-score.
Under “fitted relative affinity”, `GACGAACTCAGTATCGAGACGTGCTAG` is recorded as 1.8 z-score.
`GACGGTATCCTTTTTCTGACGTGCTAG` — result for “fitted relative affinity”: 0.732 z-score.
